Published values from different studies.
Lines come from different studies, so protocols differ. ± marks the error that the study gave.

`C[C@@H](O)[C@H](NC(=O)[C@@H]1CSSC[C@H](NC(=O)[C@@H](Cc2ccccc2)NC(=O)CCCCC2(N(CC(=O)O)CC(=O)O)CN(CC(=O)O)CCN(CC(=O)O)C2)C(=O)N[C@@H](Cc2ccc(O)cc2)C(=O)N[C@H](Cc2c[nH]c3ccccc23)C(=O)N[C@@H](CCCCN)C(=O)N[C@@H]([C@@H](C)O)C(=O)N1)C(=O)O`: “log conditional stability constant” 24.3 (capillary electrophoresis, NTA competition; 0.15 M NaClO4; pH 7.4, 25 °C).
For `CCCC[C@H](NC(=O)CCCCCCCNC(=O)CN1CCN(CC(=O)O)CCN(CC(=O)O)CC1)C(=O)N[C@H]1CC(=O)NCCCC[C@@H](C(N)=O)NC(=O)[C@H](Cc2c[nH]c3ccccc23)NC(=O)[C@H](CCCNC(=N)N)NC(=O)[C@@H](Cc2ccccc2)NC(=O)[C@H](Cc2c[nH]cn2)NC1=O` [copper-64 labelled], the tissue uptake was 1.23 ± 0.34 %ID/g (C57 mice, bone; intravenous, 0.37 MBq, 0.5 h).
With `N=C(N)NCCC[C@@H]1NC(=O)[C@H](CCCCNC(=O)CC[C@H](NC(=O)CC[C@H](NC(=O)CN2CCN(CC(=O)O)CCN(CC(=O)O)CCN(CC(=O)O)CC2)C(=O)N[C@@H](CCC(=O)NCCCC[C@@H]2NC(=O)[C@@H](Cc3ccccc3)NC(=O)[C@H](CC(=O)O)NC(=O)CNC(=O)[C@H](CCCNC(=N)N)NC2=O)C(=O)NCCCC[C@@H]2NC(=O)[C@@H](Cc3ccccc3)NC(=O)[C@H](CC(=O)O)NC(=O)CNC(=O)[C@H](CCCNC(=N)N)NC2=O)C(=O)NCCCC[C@@H]2NC(=O)[C@@H](Cc3ccccc3)NC(=O)[C@H](CC(=O)O)NC(=O)CNC(=O)[C@H](CCCNC(=N)N)NC2=O)NC(=O)[C@@H](Cc2ccccc2)NC(=O)[C@H](CC(=O)O)NC(=O)CNC1=O` [indium-111 labelled] the tissue uptake was 1.45 ± 0.53 %ID/g (female athymic nu/nu mice, heart; intravenous, 0.5 h).
`CC(=O)N[C@H](C(=O)N[C@H](C(=O)N[C@H](C(=O)N[C@H](C(=O)N[C@H](C(=O)N[C@@H](Cc1c[nH]cn1)C(=O)N[C@@H](Cc1c[nH]cn1)C(=O)N[C@@H](CCCNC(=N)N)C(=O)NCC(=O)N[C@@H](CC(=O)O)C(=O)N[C@@H](CSC1CC(=O)N(CC(=O)N[C@@H](C(=O)N[C@H](C)C(=O)N[C@H](Cc2c[nH]c3ccccc23)C(=O)N[C@H](Cc2ccc(O)cc2)C(=O)N[C@H](C)C(=O)N[C@H](CC(N)=O)C(=O)N[C@H](Cc2ccccc2)C(=O)N[C@H](CCC(=O)O)C(=O)N[C@H](C)C(=O)N[C@H](CC(C)C)C(=O)N[C@H](CC(C)C)C(=O)N[C@H](CCCNC(=N)N)C(N)=O)[C@H](C)O)C1=O)C(=O)O)C(C)C)C(C)C)C(C)C)C(C)C)C(C)C` (some centres unmarked): liver weight “no effect” (mouse, tumour-bearing; dose not given; baseline: healthy mice).
`CC[C@@]1(OC(=O)OCCSSC[C@H](NC(C)=O)C(=O)NCCCC[C@H](NC(=O)[C@H](CSSCCOC(=O)O[C@]2(CC)C(=O)OCc3c2cc2n(c3=O)Cc3cc4ccccc4nc3-2)NC(C)=O)C(=O)NCC(=O)N[C@@H](CC(N)=O)C(=O)N[C@@H](CC(N)=O)C(=O)N[C@@H](CCC(N)=O)C(=O)N[C@@H](CCC(N)=O)C(=O)N[C@@H](CC(N)=O)C(=O)N[C@@H](Cc2ccc(O)cc2)C(=O)N[C@@H](CCCCN)C(=O)N[C@@H](CCCCN)C(N)=O)C(=O)OCc2c1cc1n(c2=O)Cc2cc3ccccc3nc2-1` has a nanostructure width of 6.9 ± 1.4 nm (TEM; water; 100 µM).
`CCCC[C@H](NC(=O)CNC(=O)CNC(=O)CN1CCN(CC(=O)O)CCN(CC(=O)O)CCN(CC(=O)O)CC1)C(=O)N[C@H]1CC(=O)NCCCC[C@@H](C(N)=O)NC(=O)[C@H](Cc2c[nH]c3ccccc23)NC(=O)[C@H](CCCNC(=N)N)NC(=O)[C@@H](Cc2ccccc2)NC(=O)[C@H](Cc2c[nH]cn2)NC1=O` [lutetium-177 labelled] has a tissue uptake of 0.64 ± 0.33 %ID/g (C57 mouse, female, bone; intravenous, 0.037 MBq, 4 h).
`CC(=O)N[C@@H](CO)C(=O)NCC(=O)N[C@@H](CCC(N)=O)C(=O)N[C@H](C(=O)N1CCC[C@H]1C(=O)N[C@@H](Cc1c[nH]c2ccccc12)C(=O)N[C@@H](CCC(=O)O)C(=O)N[C@@H](CCC(=O)O)C(=O)N1CCC[C@H]1C(=O)N[C@@H](Cc1ccc(O)cc1)C(=O)N[C@@H](Cc1ccc(O)cc1)C(=O)N[C@H](C(=O)N[C@H](C(=O)N[C@@H](CCCCN)C(=O)N[C@@H](CCCCN)C(=O)N[C@@H](CO)C(=O)N[C@@H](CO)C(=O)NCC(=O)NCC(=O)N[C@@H](CSC1CC(=O)N(c2ccc3c(c2)C(=O)OC32c3ccc(O)cc3Oc3cc(O)ccc32)C1=O)C(N)=O)C(C)C)C(C)C)C(C)C` (some centres unmarked) gave a blood half-life of 0.5 h (SKH1 male mice, blood; intravenous, 100 nmol (about 11 mg/kg)).
`N=C(N)NCCC[C@@H]1NC(=O)[C@H](CCCCNC(=O)CNC(=O)CNC(=O)CNC(=O)CC[C@H](NC(=O)CNC(=O)CNC(=O)CNC(=O)CN2CCN(CC(=O)O)CCN(CC(=O)O)CCN(CC(=O)O)CC2)C(=O)NCC(=O)NCC(=O)NCC(=O)NCCCC[C@@H]2NC(=O)[C@@H](Cc3ccccc3)NC(=O)[C@H](CC(=O)O)NC(=O)CNC(=O)[C@H](CCCNC(=N)N)NC2=O)NC(=O)[C@@H](Cc2ccccc2)NC(=O)[C@H](CC(=O)O)NC(=O)CNC1=O` [indium-111 labelled] has a tissue uptake of 8 to 15 %ID/g (female athymic nu/nu mice, tumor; intravenous, 1 h).
With `C/C=C(/C)C(=O)O[C@H]1C(C)=C2[C@H]([C@@H]1OC(=O)CCCCCCC)[C@@](C)(OC(C)=O)C[C@H](OC(=O)CCCCCCCCCCCNC(=O)C[C@H](N)C(=O)N[C@@H](CCC(=O)N[C@@H](CCC(=O)N[C@@H](CCC(=O)N[C@@H](CCC(=O)O)C(=O)O)C(=O)O)C(=O)O)C(=O)O)[C@@]1(O)[C@H]2OC(=O)[C@@]1(C)O` the terminal half-life was 21 h (patients, plasma; intravenous infusion, 1 h, days 1 to 3, geometric mean).
The tissue uptake of `CCCC[C@H](NC(=O)COCCOCCNC(=O)CN1CCN(CC(=O)O)CCN(CC(=O)O)CC1)C(=O)N[C@H]1CC(=O)NCCCC[C@@H](C(N)=O)NC(=O)[C@H](Cc2c[nH]c3ccccc23)NC(=O)[C@H](CCCNC(=N)N)NC(=O)[C@@H](Cc2ccccc2)NC(=O)[C@H](Cc2c[nH]cn2)NC1=O` [copper-64 labelled] is reported as 0.03 ± 0.01 %ID/g (C57 mice, brain; intravenous, 0.37 MBq, 2 h).
`CC(C)C[C@H](NC(=O)[C@H](Cc1ccc(O)cc1)NC(=O)[C@@H](CCCNC(=N)N)NC(=O)[C@@H](CO)NC(=O)[C@H](Cc1ccccc1)NC(=O)[C@H](CC1CCCCC1)NC(=O)[C@H](CC(=O)O)NC(=O)CN1CCCN2CCN(CCCN(CC(=O)O)CC2)CC1)C(=O)N[C@@H](Cc1c[nH]c2ccccc12)C(=O)N[C@@H](CO)C(=O)O` [copper-64 labelled] has a tissue uptake of 1.2 ± 0.1 %ID/g (female NMRI nude mice, heart; 1 h p.i.).

Repeated from above:
`N=C(N)NCCC[C@@H]1NC(=O)[C@H](CCCCNC(=O)CNC(=O)CNC(=O)CNC(=O)CC[C@H](NC(=O)CNC(=O)CNC(=O)CNC(=O)CN2CCN(CC(=O)O)CCN(CC(=O)O)CCN(CC(=O)O)CC2)C(=O)NCC(=O)NCC(=O)NCC(=O)NCCCC[C@@H]2NC(=O)[C@@H](Cc3ccccc3)NC(=O)[C@H](CC(=O)O)NC(=O)CNC(=O)[C@H](CCCNC(=N)N)NC2=O)NC(=O)[C@@H](Cc2ccccc2)NC(=O)[C@H](CC(=O)O)NC(=O)CNC1=O` [indium-111 labelled] has a tissue uptake of 8 to 15 %ID/g (female athymic nu/nu mice, tumor; intravenous, 1 h).
